Published values pooled from the literature.
Each numbered part is a random draw from the data of one study; scales do not carry over between parts. Positions count from the first letter of the parent shown.

Sample 1
Target: ABI1, truncated, D143A, DHFR fusion (Arabidopsis thaliana)
Technique: DHFR PCA, deep sequencing
Sample: yeast
Notes: methotrexate growth selection, single substitutions
With: (+)-ABA 0.39 µM
Baseline: wild-type fitted maximum
Direction: higher = stronger binding
Starting sequence: PYL1, truncated, DHFR fusion (Arabidopsis thaliana); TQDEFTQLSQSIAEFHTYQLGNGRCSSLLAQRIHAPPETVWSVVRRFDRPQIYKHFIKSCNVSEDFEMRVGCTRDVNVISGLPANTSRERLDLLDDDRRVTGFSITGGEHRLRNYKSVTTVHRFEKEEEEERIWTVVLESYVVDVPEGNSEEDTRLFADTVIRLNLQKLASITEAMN; partner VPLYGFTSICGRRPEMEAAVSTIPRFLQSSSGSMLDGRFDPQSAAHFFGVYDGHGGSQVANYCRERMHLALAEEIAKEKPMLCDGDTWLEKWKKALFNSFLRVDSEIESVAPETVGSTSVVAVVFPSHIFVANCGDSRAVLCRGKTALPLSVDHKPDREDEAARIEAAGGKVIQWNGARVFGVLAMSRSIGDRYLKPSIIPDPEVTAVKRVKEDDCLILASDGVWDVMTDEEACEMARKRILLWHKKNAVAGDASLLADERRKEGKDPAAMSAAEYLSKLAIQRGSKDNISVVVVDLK
Change	relative binding score
Y141S	-4.77%
R32F	30.6%
R90E	14.3%
R24K	56.7%
E127G	48%
V44K	-10.7%
P83W	0.202%
C60G	-6.79%
D65M	5.66%
A175E	36.3%
T101E	4.6%
N61D	50.1%
L28H	-10.6%
P146H	0.0821%
L94C	2.14%
T1A	44.1%
T6M	52.2%

Sample 2
Target: RNA binding protein fox-1 homolog 2, RRM domain, GST-SBP tag (RBFOX2, Homo sapiens, UniProt O43251-10, residues 100-194)
Technique: RNA Bind-n-Seq
Molecule type: RNA
Sample: in vitro
Tested at: 365 nM
Notes: natural RNA segment, single round, ends assumed
Baseline: no-protein control
Direction: higher = stronger binding
Constant ends, left off below: GGGAGUUCUACAGUCCGACGAUC … UGGAAUUCUCGGGUGCCAA
Construct (chain): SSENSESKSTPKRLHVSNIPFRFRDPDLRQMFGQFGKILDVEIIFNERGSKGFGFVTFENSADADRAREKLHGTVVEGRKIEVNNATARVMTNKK
Strand	RBNS enrichment (R)
AGGUACUUUGGGACCCCUGGGAGGGUCCUACGUCCAGCCUCCAUCUCGGUCCUCUGGCCCCUUCUCCUUGCGGACCUCAUUUGGAAGGACACAUCUCUCUAUGCAAUUUG	0.366
GAUGCAUUCUUAUUGAAUACUAUCUUGGGUUUACCGUAUUUCCGACACACGAUAGUAAGGAGCAUUUAGCAAUGAUGGAAAGGAUUCUUGGACCUCUACCAAAACAUAUG	0.457
AACGACUCUGCCUGCAAGUGGCAAAUACCAACAUAACCACAUCUUCCUUUUAGUUGCCACAAAUAUUCAGUUUUGUUUUAUCCAUCAUGUCCCCCAUAUGCAUGUAAUGA	61.3
CCACUGUCUCCCCAUCCUUCCACCUACUUGUGGCGAUCUGAGUACUCUACUCUUGCUCAAGAAGUAAUACGACAAUCAGAAUACAAACCAGUAAGGCAACACGAAUAAAC	0.5
CCGACCCAGGCCCCCAAAUCUGGGCUGUUGUGGAACACCCAUGACUUAAGCCUUUCUCCAAGUCUGGAUUCCAGAAAUGUUCCCCACAUCAAGGCUCUGACACCCCAGCC	0.713
GCAGCUCAGGGAGUGUUUUCCUGUGAGGCCUCCCCCAUCAGUGGACCAGAGGGAGAAGCCCGAUGCCCCAUCCCGGCUUUCCCGUAACGCACAGGACACGUGUGCAAUUC	0.336
UCAAAUUCUAAUGGAAUUGAGCCGGUUUCUUAUCCUAAAUGUUUCCUCCCUUUUUACAAUCUCUGUCCAGCACCUCUUGGUUAAAUAAUGUAUGCUGUGAGACAUGAAAU	0.751
AUGUUAGCCCAAGCUCAGGGUAGGCCCAGGGGGCUGGGAGAAAUGAAGCCACCCAUGGGGACUGGGGACCAGGGGCCUUCAGCAUGGCUUCUAGGUUCCCUCCUCCCCCU	0.322
UAGGCCCGAGCUGCAUUGCCGGCCUUCCUCGGGCCAACUGGCAGCCCAGGAGUGGGGAGGCUUUGGCCAGGGAUGCUGCCACUUGUGCGUGAGUCCGCGGCUGGCCCUUG	0.336
UAGAUGCUAGACCAACCAGCUUCCCAGGGUUCGUCGCUGUGAGGCGUAAGGGACAUGAAUUCUAGGGUCUCCUUUCUCCUUAUUUAUUCUUGUGGCUACAUCAUCCCUGG	0.525
CCGUAACUGGAAUCUUCAUAGGUCAUAUUGAAAUCUUCAAGGUGACCAUGCCCCACCGGGGUGCUGGGGCAGUAGUCAUGGCAGACUCCCGGCCUGGGCCCCCAGGAUUC	0.31
UCAUGCUGCUGAGCCUCUAUUUUCUUUCUUUGAUGUUUUGAUUCAGUAUUCUUUUAUCAUAAAUUUUUAGCAUUUAAAAAUUCACUGAUGUACAUUAAGCCAAUAAACUG	0.578

Sample 3
Target: TAR DNA-binding protein 43, full length, His tag (TARDBP, Homo sapiens, UniProt Q13148, residues 1-414)
Technique: RNA Bind-n-Seq
Molecule type: RNA
Sample: in vitro
Tested at: 20 nM
Notes: 6-mer, flanks averaged, single round
With: 150 mM KCl
Baseline: input library
Direction: higher = stronger binding
Strand	6-mer enrichment (R)
CAUCCU	0.569
GAGGAG	3.95
CGUUUU	0.613
UGGAUG	1.46
CCAUCU	0.577
ACAGGC	0.92
UUACCA	0.591
AUGUAA	0.701
AGCGAU	0.757
AAGCCG	0.837
CGAGAU	0.774
CUAGAA	0.691
AAGUGA	0.843
UAGCUU	0.587
UAUGCU	0.669
CCUUAA	0.597
GCCGUU	0.762

Sample 4
Target: CCNF, cyclin fold, Cln2 fusion (human)
Technique: yeast growth competition, sequencing
Sample: yeast
Notes: strong parent motif
Baseline: not given
Direction: higher = stronger binding
Starting sequence: BRCA2 docking peptide (human); PSIKRNLLNEFDR
Change	normalised enrichment score
S2I	5.4
S2K	2.35
R5V	0.738
K4D	0.414
N6I	0.89
F11M	1.1
N9V	4.1
N6S	2.42
F11Y	1.8
F11E	0.239
R13I	2.84
L8G	1.33
E10D	4.67
L7T	0.42
F11I	2.09
K4W	0.768
L8S	1.32
R5Q	0.443

Sample 5
Target: Phosphate system positive regulatory protein PHO4, full length, GST-tagged (PHO4, Saccharomyces cerevisiae, UniProt P07270, residues 1-312)
Technique: competition protein-binding microarray
Molecule type: double-stranded DNA, one strand shown
Sample: in vitro
Tested at: 2 µM
Notes: whole 60-bp probe, lowest competitor level
With: Cbf1 competitor, 0.05 µM
Direction: higher = stronger binding
Constant ends, left off below: … GTCTTGATTCGCTTGACGCTGCTG
Residues (chain): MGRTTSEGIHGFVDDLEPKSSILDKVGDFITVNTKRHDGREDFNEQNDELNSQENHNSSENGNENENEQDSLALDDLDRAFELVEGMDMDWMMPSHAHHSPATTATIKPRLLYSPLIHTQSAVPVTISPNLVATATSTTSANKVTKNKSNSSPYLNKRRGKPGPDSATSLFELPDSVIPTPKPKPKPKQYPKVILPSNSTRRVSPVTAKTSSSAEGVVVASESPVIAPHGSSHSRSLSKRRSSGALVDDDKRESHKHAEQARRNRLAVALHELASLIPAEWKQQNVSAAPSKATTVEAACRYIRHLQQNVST
Strand	fluorescence intensity [a.u.]
CTAACGAAGGTTTTTCACGTGTAATACAAGCCAAGT	11900
CCATTAGTAGGTTGTCATGAAGGTGCTGGTGTAGTT	5780
CGTCCTAGCGATTGAGCAGTGGGTGCCATGAGGAAG	6460
AACAGGCTTGGATGGTACGTGCTTTCCCTTGTCGAG	7510
CTAACGAAGGTTTGCTTTGTGGGTGACAAGCCAAGT	4000
ATGGAGTTAATTCACCACGTTACTAAATAAGAGATT	10600
GTCTTGTCTCATTGACTTGTGGGTGTCCCCACTTCA	6000
CATACCCAACCTTGTCACCAAACTTAAGATATTTGT	3280
TCTCGTAAAATCCTGCGCATGTTAAATAGCCGCCGA	6010
AGTTATCTAAGATTCGTCGTGCTTTAAGAGACTTGT	5490
CGGATGCGCTGGCTGTACGTGACGGTGAAGTAGCTA	4680
GGTTTACGTCAGGGTCCTTTGGCGGGTGGTGGTTCA	5010
TACATCTATTATATTCACGTGCAAAGCATTTTCAGC	15500
GTGTTAAAGACTTGTAAAAGTTGCCGTAAAACACTA	3950
AAATTACTAAGTTGTCACTGTACTTACCCCGTATGA	3860
TCATCGTCAGAACATCTCGTGACTCGAGCACTCGTC	6850
AAATTACTAAGTTGTCACACTACTTACCCCGTATGA	3630
CTTGGTCAATCAATCCACGTGAACCTCAACGCAGAT	14100
CACGATAATTTATACGTAATCTGGCCCCTTCTTTCG	3250
TTGGTACGAAGAAAGCACGTGGATTCAGCAATTCAA	17600
CCACAATCACTAGACCATGTGATTTGTATTTTTCGG	9290
TTCTTTATCTGATGATTCGTGATGGTCTAAATCTGC	4200

Repeated from above (sample 5):
Strand	fluorescence intensity [a.u.]
CGTCCTAGCGATTGAGCAGTGGGTGCCATGAGGAAG	6460
AACAGGCTTGGATGGTACGTGCTTTCCCTTGTCGAG	7510
CTAACGAAGGTTTGCTTTGTGGGTGACAAGCCAAGT	4000
ATGGAGTTAATTCACCACGTTACTAAATAAGAGATT	10600
GTCTTGTCTCATTGACTTGTGGGTGTCCCCACTTCA	6000
CATACCCAACCTTGTCACCAAACTTAAGATATTTGT	3280
TCTCGTAAAATCCTGCGCATGTTAAATAGCCGCCGA	6010
AGTTATCTAAGATTCGTCGTGCTTTAAGAGACTTGT	5490
CGGATGCGCTGGCTGTACGTGACGGTGAAGTAGCTA	4680
GGTTTACGTCAGGGTCCTTTGGCGGGTGGTGGTTCA	5010
TACATCTATTATATTCACGTGCAAAGCATTTTCAGC	15500
GTGTTAAAGACTTGTAAAAGTTGCCGTAAAACACTA	3950
